Literature values as cited in several papers.
Protocols differ between the studies behind these lines. Values after ≈ are worked out from the molar mass of the structure shown.

Compound	tested on	assay	system	setting	measurement	value
CN1CCCC(CN2CCN(Cc3ccc(-c4cccc(-c5nc6ccccc6[nH]5)c4)cc3)CC2)C1 (stereo not drawn)	Plasmodium falciparum	whole cell extended time	3D7	72 h	IC50	130 nM
C[C@H]1COCCN1c1nc(-c2cnc(N)cc2C(F)F)nc(N2CCOCC2)n1	Jurkat E6-1	–	–	–	GI50	1130 nM
CNC(C)C1CCC(N)C(OC2C(N)CC(N)C(OC3OCC(C)(O)C(NC)C3O)C2O)O1 (stereo not drawn)	Enterobacter cloacae	–	clinical isolate RKI-No_210/15	–	MIC	2 µg/mL (≈ 4.19 µM)
COc1ccccc1Oc1cccc(CN2CCC(O)(c3ccccc3C(=O)O)CC2)c1	human CCR8 G206W mutant (TM5)	IP accumulation, agonist	–	–	EC50	20 nM
Cc1[nH]c(C)c(-c2ccc(Nc3ccc(C(F)(F)F)cn3)cc2)c(=O)c1Br	Plasmodium falciparum	whole cell extended time	3D7	72 h	IC50	30 nM
COc1ccccc1Oc1cccc(CN2CCC(NC(=O)C3CC(=O)Nc4ccccc43)CC2)c1 (stereo not drawn)	human CCR8 S110W mutant (TM3)	IP accumulation, agonist	–	–	EC50	> 10000 nM
CC1(C)S[C@@H]2[C@H](NC(=O)[C@H](N)c3ccccc3)C(=O)N2[C@H]1C(=O)O	Pseudomonas aeruginosa	–	clinical isolate RKI-No_216/16	–	MIC	> 16 µg/mL
CCNS(=O)(=O)c1ccc(OC)cc1C1(O)CCN(Cc2cccc(Oc3ccccc3OC)c2)CC1	human CCR8 S110W mutant (TM3)	IP accumulation, agonist	–	–	EC50	> 10000 nM
O=C(c1cc(-c2cccs2)[nH]n1)N1CCN(S(=O)(=O)c2ccc(Cl)s2)CC1	Plasmodium falciparum	whole cell extended time	3D7	72 h	IC50	870 nM
Nc1cc(C(F)(F)F)c(-c2nc(N3CCOCC3)nc(N3CCOCC3)n2)cn1	SHP77	–	–	–	GI50	6700 nM
COc1ccccc1Oc1cccc(CN2CCC(NC(=O)C(CCN3CCCC3)c3ccccc3)CC2)c1 (stereo not drawn)	human CCR8 S110W mutant (TM3)	IP accumulation, agonist	–	–	EC50	> 10000 nM
Cc1cc(=O)c(-c2ccc(Oc3cccc(C(F)(F)F)c3)cc2)c(C)[nH]1	Plasmodium falciparum	whole cell extended time	3D7	72 h	IC50	630 nM

Excerpt of the above:
Compound	tested on	assay	system	setting	measurement	value
COc1ccccc1Oc1cccc(CN2CCC(O)(c3ccccc3C(=O)O)CC2)c1	human CCR8 G206W mutant (TM5)	IP accumulation, agonist	–	–	EC50	20 nM
Cc1[nH]c(C)c(-c2ccc(Nc3ccc(C(F)(F)F)cn3)cc2)c(=O)c1Br	Plasmodium falciparum	whole cell extended time	3D7	72 h	IC50	30 nM
